Published values of several laboratories.
Compare with care: the assays were run in different laboratories. Numbers after ± are the reported error.
OPRL1: Nociceptin receptor (OPRL1, Homo sapiens, UniProt P41146)

The chains behind the UniProt entries cited, without tags or fusion partners. A line that says so, or that is headed by a name, gives the form on record, which may keep a tag or linker. Residues count along the entry.
UniProt P41146, whole entry: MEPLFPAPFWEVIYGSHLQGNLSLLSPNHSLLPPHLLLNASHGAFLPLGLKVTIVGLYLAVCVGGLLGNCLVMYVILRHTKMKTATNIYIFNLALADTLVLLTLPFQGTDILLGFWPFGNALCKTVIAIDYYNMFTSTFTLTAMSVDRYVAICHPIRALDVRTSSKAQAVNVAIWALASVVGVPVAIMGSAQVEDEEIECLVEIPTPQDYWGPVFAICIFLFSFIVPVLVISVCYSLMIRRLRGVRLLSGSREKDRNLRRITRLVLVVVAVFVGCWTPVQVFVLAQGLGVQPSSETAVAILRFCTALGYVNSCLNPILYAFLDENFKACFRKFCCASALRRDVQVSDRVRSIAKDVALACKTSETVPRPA
UniProt Q9JKC1, 24-597 limits assumed: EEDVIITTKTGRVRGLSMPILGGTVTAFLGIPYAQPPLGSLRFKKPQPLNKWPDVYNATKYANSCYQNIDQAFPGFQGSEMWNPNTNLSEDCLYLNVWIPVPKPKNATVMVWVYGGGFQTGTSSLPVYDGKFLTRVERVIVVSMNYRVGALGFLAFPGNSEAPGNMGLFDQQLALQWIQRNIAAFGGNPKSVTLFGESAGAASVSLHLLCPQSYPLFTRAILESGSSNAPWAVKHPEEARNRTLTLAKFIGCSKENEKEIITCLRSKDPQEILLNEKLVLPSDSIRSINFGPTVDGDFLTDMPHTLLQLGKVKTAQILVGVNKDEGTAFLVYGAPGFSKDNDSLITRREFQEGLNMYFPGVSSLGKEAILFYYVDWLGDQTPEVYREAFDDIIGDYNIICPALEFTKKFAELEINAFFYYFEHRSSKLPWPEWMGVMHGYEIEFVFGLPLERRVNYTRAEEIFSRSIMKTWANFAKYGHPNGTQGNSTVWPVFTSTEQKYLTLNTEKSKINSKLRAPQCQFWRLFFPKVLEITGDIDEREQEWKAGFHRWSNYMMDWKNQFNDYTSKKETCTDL
UniProt P08510, 1-655 with tags or gaps DEL6-46: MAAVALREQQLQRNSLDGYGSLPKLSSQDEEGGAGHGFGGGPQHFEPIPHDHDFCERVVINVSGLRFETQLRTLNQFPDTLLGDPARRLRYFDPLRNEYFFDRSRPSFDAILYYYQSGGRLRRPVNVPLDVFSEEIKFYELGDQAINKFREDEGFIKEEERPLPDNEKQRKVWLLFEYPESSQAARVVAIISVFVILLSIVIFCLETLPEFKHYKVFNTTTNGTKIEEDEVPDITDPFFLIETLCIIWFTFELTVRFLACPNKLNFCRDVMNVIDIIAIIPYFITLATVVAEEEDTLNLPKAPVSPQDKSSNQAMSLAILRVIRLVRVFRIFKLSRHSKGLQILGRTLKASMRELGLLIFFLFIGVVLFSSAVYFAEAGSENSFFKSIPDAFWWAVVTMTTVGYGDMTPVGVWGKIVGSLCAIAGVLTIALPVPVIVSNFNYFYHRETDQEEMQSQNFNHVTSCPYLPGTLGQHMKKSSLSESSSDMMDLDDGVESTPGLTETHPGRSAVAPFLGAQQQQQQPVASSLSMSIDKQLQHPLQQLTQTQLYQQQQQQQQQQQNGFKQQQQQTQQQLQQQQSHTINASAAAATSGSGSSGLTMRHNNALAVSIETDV
UniProt P32121, whole entry partner: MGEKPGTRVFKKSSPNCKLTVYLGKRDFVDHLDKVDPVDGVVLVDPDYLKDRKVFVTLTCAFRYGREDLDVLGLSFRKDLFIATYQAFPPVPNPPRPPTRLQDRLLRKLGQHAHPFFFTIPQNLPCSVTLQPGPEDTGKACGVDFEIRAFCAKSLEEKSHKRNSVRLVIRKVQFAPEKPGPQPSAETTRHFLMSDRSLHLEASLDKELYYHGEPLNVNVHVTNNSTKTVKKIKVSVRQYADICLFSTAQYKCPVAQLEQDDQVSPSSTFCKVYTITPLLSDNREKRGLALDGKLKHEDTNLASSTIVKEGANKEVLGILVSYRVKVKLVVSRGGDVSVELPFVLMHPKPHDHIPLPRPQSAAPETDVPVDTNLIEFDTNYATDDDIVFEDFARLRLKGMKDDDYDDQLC

O=C(Nc1ccc2c(c1)C(=O)N(O)C(=O)C2C(=O)NCc1ccc(F)cc1)c1ccccc1 (stereo not shown)
remaining activity (Lymphocytic choriomeningitis mammarenavirus; minigenome reporter gene; 50 µM; relative to: DMSO): 67.2%

CNC(=O)CC1C(=O)N(C2CCN([C@H]3CC[C@@H](C(C)C)CC3)CC2)c2ccccc21 (stereo partly shown)
potency ratio (OPRL1; β-arrestin 2 recruitment, BRET; HEK293; relative to: compound EC50 over N/OFQ EC50): 5

Cc1ccc(S(=O)(=O)Nc2cccc(C(=O)NC3CCN(c4ncnc5[nH]cnc45)CC3)c2)cc1Cl
relative infection (SARS-CoV-2; Wuhan-Hu-1; 0.823 µM; relative to: untreated infected cells): 61.4%

CC[C@H](C)[C@H](NC(=O)[C@H](C)NC(=O)[C@H](CCC(=O)O)NC(=O)[C@H](CCC(=O)O)NC(=O)[C@H](CC(C)C)NC(=O)[C@H](CCCCN)NC(=O)[C@H](CCCCN)NC(=O)[C@H](CCSC)NC(=O)[C@H](CCC(=O)O)NC(=O)[C@H](Cc1ccc(O)cc1)NC(=O)[C@H](CCC(=O)O)NC(=O)[C@H](CC(C)C)NC(=O)[C@H](CC(=O)O)NC(=O)[C@H](CC(C)C)NC(=O)[C@H](Cc1ccccc1)NC(=O)[C@@H](NC(=O)[C@@H](NC(=O)[C@H](CC(N)=O)NC(=O)[C@@H](NC(=O)[C@H](CCC(N)=O)NC(=O)[C@H](CC(=O)O)NC(=O)[C@H](CC(C)C)NC(=O)[C@@H](N)CO)[C@@H](C)CC)C(C)C)[C@@H](C)O)C(=O)N[C@@H](CCCCN)C(=O)N[C@@H](CCCCN)C(=O)N[C@@H](CC(C)C)C(=O)N[C@@H](CCC(=O)O)C(=O)N[C@@H](CCC(=O)O)C(=O)N[C@@H](CO)C(=O)N[C@@H](Cc1ccc(O)cc1)C(=O)N[C@H](C(=O)N[C@@H](CC(=O)O)C(=O)N[C@@H](CC(C)C)C(=O)N[C@@H](CCCCN)C(=O)N[C@@H](CCC(=O)O)C(=O)N[C@@H](CC(C)C)C(=O)O)[C@@H](C)CC
IC50 (SARS-CoV-2 Gamma pseudovirus; pseudovirus infection, inhibitor, luciferase; Caco-2; 24 h): 1710 nM

CN1C(=O)CCc2cc(C(=O)NCC=CS(C)(=O)=O)ccc21
IC50 (Venezuelan equine encephalitis virus; viral replication, nanoluciferase reporter; TC83-nLuc-nsP3): 3700 ± 800 nM

O=C(NCc1ccccc1)C1C(=O)N(O)C(=O)c2cc([N+](=O)[O-])ccc21 (stereo not shown)
remaining activity (Lymphocytic choriomeningitis mammarenavirus; minigenome reporter gene; 100 µM; relative to: DMSO): 81.6%

CCOP(=O)(OCC)ON1C(=O)c2cccc3cccc(c23)C1=O
IC50 (Butyrylcholinesterase (Bche, Rattus norvegicus, UniProt Q9JKC1); inhibitor; rat, postnatal day 12, rat serum): 7 nM

COc1ccc(S(=O)(=O)Nc2cccc(C(=O)NC3CCN(c4ncnc5[nH]cnc45)CC3)c2)cc1
relative infection (SARS-CoV-2; Wuhan-Hu-1; 66.67 µM; relative to: untreated infected cells): 20.9%

CC[C@H](C)[C@H](NC(=O)[C@H](C)NC(=O)[C@H](CCC(=O)O)NC(=O)[C@H](CCC(=O)O)NC(=O)[C@H](CC(C)C)NC(=O)[C@H](CCCCN)NC(=O)[C@H](CCCCN)NC(=O)[C@H](CCSC)NC(=O)[C@H](CCC(=O)O)NC(=O)[C@H](Cc1ccc(O)cc1)NC(=O)[C@H](CCC(=O)O)NC(=O)[C@H](CC(C)C)NC(=O)[C@H](CC(=O)O)NC(=O)[C@H](CC(C)C)NC(=O)[C@H](Cc1ccccc1)NC(=O)[C@H](Cc1ccc(O)cc1)NC(=O)[C@@H](NC(=O)[C@H](CC(N)=O)NC(=O)[C@@H](NC(=O)[C@H](CCC(N)=O)NC(=O)[C@H](CC(=O)O)NC(=O)[C@H](CC(C)C)NC(=O)[C@@H](N)CO)[C@@H](C)CC)C(C)C)C(=O)N[C@@H](CCCCN)C(=O)N[C@@H](CCCCN)C(=O)N[C@@H](CC(C)C)C(=O)N[C@@H](CCC(=O)O)C(=O)N[C@@H](CCC(=O)O)C(=O)N[C@@H](C)C(=O)N[C@@H](Cc1ccc(O)cc1)C(=O)N[C@H](C(=O)N[C@@H](CC(=O)O)C(=O)N[C@@H](CC(C)C)C(=O)N[C@@H](CCCCN)C(=O)N[C@@H](CCC(=O)O)C(=O)N[C@@H](CC(C)C)C(=O)O)[C@@H](C)CC
IC50 (SARS-CoV-2 Alpha pseudovirus; pseudovirus infection, inhibitor, luciferase; Caco-2; 24 h, dual mutations): 446 nM

CC[C@H](C)[C@@H]1NC(=O)[C@H](CCCNC(=N)N)NC(=O)[C@@H](N)CSSC[C@@H]2NC(=O)[C@@H]3CSSC[C@@H](C(=O)N[C@H](C(=O)O)C(C)C)NC(=O)[C@H](CCCCN)NC(=O)[C@H](CC(N)=O)NC(=O)[C@H](Cc4ccccc4)NC(=O)[C@H](CCCNC(=N)N)NC(=O)[C@H](CC(N)=O)NC(=O)[C@H](CSSC[C@H](NC(=O)[C@H](CCCCN)NC(=O)[C@H](CCC(N)=O)NC(=O)[C@H](CC(N)=O)NC(=O)[C@@H]4C[C@@H](O)CN4C1=O)C(=O)N[C@@H](Cc1ccccc1)C(=O)N[C@@H](CCC(N)=O)C(=O)N[C@@H](Cc1c[nH]cn1)C(=O)N[C@@H](CC(C)C)C(=O)N[C@@H](CC(=O)O)C(=O)N[C@@H](CC(=O)O)C(=O)N3)NC(=O)[C@H](CCCCN)NC(=O)[C@H](CCCNC(=N)N)NC(=O)[C@H](CO)NC2=O
koff (Sh (Drosophila melanogaster, UniProt P08510, del6-46); potassium current, two-electrode voltage clamp; Xenopus oocytes; external K 2 mM, zero voltage): 21 ± 2 s⁻¹

CC[C@H](C)[C@H](NC(=O)[C@H](C)NC(=O)[C@H](CCC(=O)O)NC(=O)[C@H](CCC(=O)O)NC(=O)[C@H](CC(C)C)NC(=O)[C@H](CCCCN)NC(=O)[C@H](CCCCN)NC(=O)[C@H](CCSC)NC(=O)[C@H](CCC(=O)O)NC(=O)[C@H](Cc1ccc(O)cc1)NC(=O)[C@H](CCC(=O)O)NC(=O)[C@H](CC(C)C)NC(=O)[C@H](CC(=O)O)NC(=O)[C@H](CC(C)C)NC(=O)[C@H](Cc1ccccc1)NC(=O)[C@@H](NC(=O)[C@@H](NC(=O)[C@H](CC(N)=O)NC(=O)[C@@H](NC(=O)[C@H](CCC(N)=O)NC(=O)[C@H](CC(=O)O)NC(=O)[C@H](CC(C)C)NC(=O)[C@@H](N)CO)[C@@H](C)CC)C(C)C)[C@@H](C)O)C(=O)N[C@@H](CCCCN)C(=O)N[C@@H](CCCCN)C(=O)N[C@@H](CC(C)C)C(=O)N[C@@H](CCC(=O)O)C(=O)N[C@@H](CCC(=O)O)C(=O)N[C@@H](C)C(=O)N[C@@H](Cc1ccc(O)cc1)C(=O)N[C@H](C(=O)N[C@@H](CC(=O)O)C(=O)N[C@@H](CC(C)C)C(=O)N[C@@H](CCCCN)C(=O)N[C@@H](CCC(=O)O)C(=O)N[C@@H](CC(C)C)C(=O)O)[C@@H](C)CC
IC50 (SARS-CoV-2 Alpha pseudovirus; pseudovirus infection, inhibitor, luciferase; Caco-2; 24 h): 359 nM

O=C(NC1CCN(c2ncnc3[nH]cnc23)CC1)c1cccc(S(=O)(=O)Nc2ccc(Cl)cc2)c1
relative infection (SARS-CoV-2; Wuhan-Hu-1; 0.01016 µM; relative to: untreated infected cells): 89.4%

CC(C)[C@H]1CC[C@@H](N2CCC3(CC2)C(=O)NCN3c2ccccc2)CC1
selectivity ratio (OPRL1; calcium mobilization; CHO; relative to: NOP over mu, delta, kappa): < 100 fold

Some of these lines once more:
O=C(NCc1ccccc1)C1C(=O)N(O)C(=O)c2cc([N+](=O)[O-])ccc21 (stereo not shown)
remaining activity (Lymphocytic choriomeningitis mammarenavirus; minigenome reporter gene; 100 µM; relative to: DMSO): 81.6%
